Published values collected from several papers.
Each numbered part is a random draw from the data of one study; scales do not carry over between parts. Values joined by “and” are separate records of one study, mostly repeats; a detail may differ.
Chain of UniProt Q99640 (whole entry, looked up): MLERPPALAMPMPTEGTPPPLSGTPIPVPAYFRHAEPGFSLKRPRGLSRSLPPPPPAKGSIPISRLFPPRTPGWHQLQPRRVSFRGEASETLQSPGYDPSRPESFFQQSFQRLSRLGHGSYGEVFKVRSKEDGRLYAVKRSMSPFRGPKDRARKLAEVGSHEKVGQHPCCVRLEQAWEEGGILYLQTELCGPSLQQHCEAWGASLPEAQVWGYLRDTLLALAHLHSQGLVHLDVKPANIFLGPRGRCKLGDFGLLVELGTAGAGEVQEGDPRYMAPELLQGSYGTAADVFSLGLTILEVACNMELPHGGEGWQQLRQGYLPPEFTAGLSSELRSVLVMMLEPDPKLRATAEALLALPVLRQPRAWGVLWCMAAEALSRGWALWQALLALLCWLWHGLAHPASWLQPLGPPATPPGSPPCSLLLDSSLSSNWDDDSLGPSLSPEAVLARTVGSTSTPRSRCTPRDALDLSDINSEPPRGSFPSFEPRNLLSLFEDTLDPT

Block 1
SMILES: Cc1ccc(O)c(C)c1-c1cnc2[nH]c(-c3cnc(N4CCC5(CC4)CC(N4CCN(c6ccc(N[C@H]7CCC(=O)NC7=O)cc6F)CC4)CO5)nc3)cc2c1C#N (single isomer, unassigned)
tested on | observed | technique | concentration | inhibition
SW1463 | cell proliferation |  | 1.52 nM | -5.06% and -3.61%
MDA-MB-436 | cell proliferation |  | 10000 nM | 95.9%
SRC |  | KINOMEscan | 1000 nM | 81%
HuCCT-1 | cell proliferation |  | 3333.33 nM | 96.9%
RKO | cell proliferation |  | 10000 nM | 89.1%
HCC1569 | cell proliferation |  | 10000 nM | 92.4%
PKMYT1 (Homo sapiens, UniProt Q99640) |  |  | 3.333 µM | 98%
MDA-MB-436 | cell proliferation |  | 4.57 nM | 1.18% and 1.42% and 6.2%

Block 2
SMILES: CCN1/C(=C/C=C2\CCCC(/C=C/C3=[N+](CC)c4ccccc4C3(C)C)=C2NCCCCCCCCN2CCC(Nc3nc4ccccc4n3Cc3ccc(F)cc3)CC2)C(C)(C)c2ccccc21
Cell line: U-87 MG
Concentration: concentration not given
Baseline: DMSO
measured | log2 fold change
ZFAND6 mRNA | 0.842
PARPBP mRNA | -1.28
SLC25A38 mRNA | 1.09
CSNK2A1 mRNA | 0.929
SLC29A1 mRNA | -1.65
FLOT2 mRNA | -1.1

Block 3
SMILES: C[C@@H]1CN(c2ccc(-c3cc(C(=O)NCCOCCOCCOCCOCCNC(=O)/C=C/c4[nH]cc(C(=O)N[C@@H](CC(N)=O)c5ccc(F)c(Cl)c5)c4-c4ccc(Cl)cc4F)ccc3F)cc2NC(=O)c2c[nH]c(=O)cc2C(F)(F)F)C[C@H](C)N1C
Observed: thermal unfolding
Technique: differential scanning fluorimetry
Concentration: 5.5 µM
Reading: higher = more unfolded
WDR5: WD repeat-containing protein 5 (WDR5, Homo sapiens, UniProt P61964)
DCAF1: DDB1- and CUL4-associated factor 1 (DCAF1, Homo sapiens, UniProt Q9Y4B6)
Chain of UniProt Q9Y4B6 (whole entry, looked up): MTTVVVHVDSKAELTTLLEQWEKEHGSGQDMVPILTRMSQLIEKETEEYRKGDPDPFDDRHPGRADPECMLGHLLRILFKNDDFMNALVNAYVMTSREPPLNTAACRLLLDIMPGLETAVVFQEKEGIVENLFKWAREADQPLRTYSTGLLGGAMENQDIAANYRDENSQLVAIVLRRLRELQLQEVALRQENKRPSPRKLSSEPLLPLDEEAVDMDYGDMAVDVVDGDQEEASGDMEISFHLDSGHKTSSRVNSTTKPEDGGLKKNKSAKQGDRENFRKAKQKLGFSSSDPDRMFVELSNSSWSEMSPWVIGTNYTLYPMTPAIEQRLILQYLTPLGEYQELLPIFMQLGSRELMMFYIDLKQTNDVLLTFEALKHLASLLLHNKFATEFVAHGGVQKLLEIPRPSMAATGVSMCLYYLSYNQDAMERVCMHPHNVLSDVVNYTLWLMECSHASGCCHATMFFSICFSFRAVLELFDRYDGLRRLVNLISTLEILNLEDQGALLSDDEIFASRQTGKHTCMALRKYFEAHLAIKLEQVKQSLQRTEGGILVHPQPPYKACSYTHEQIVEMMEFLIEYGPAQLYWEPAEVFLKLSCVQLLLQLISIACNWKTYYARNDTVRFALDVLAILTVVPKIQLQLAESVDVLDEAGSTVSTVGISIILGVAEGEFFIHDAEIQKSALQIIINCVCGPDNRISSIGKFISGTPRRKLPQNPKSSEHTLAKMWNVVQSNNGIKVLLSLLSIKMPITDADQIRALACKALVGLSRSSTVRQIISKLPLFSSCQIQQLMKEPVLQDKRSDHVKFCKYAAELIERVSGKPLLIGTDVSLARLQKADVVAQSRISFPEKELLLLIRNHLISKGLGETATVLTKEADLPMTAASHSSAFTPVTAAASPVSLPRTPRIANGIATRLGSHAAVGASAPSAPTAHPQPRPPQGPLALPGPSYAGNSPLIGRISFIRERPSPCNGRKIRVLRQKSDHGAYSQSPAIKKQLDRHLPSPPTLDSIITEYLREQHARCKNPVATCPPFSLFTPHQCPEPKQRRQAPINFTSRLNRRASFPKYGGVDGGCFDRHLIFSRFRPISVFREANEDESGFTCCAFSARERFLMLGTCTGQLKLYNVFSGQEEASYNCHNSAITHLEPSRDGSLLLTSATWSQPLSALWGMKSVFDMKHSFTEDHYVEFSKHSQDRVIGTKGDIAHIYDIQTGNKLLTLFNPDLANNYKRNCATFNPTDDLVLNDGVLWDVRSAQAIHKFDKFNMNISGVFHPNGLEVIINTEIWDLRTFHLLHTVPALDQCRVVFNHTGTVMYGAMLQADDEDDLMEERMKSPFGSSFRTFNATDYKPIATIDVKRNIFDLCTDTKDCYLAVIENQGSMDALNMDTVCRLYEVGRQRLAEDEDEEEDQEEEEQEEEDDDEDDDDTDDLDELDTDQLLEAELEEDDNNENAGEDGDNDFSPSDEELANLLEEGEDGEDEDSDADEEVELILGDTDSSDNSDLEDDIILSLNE
target | temperature | SYPRO Orange fluorescence [a.u.]
WDR5 | 50.2 °C | 16500
DCAF1 | 27 °C | 8860
WDR5 | 93.41 °C | 47100
WDR5 | 41.6 °C | 14500
DCAF1 | 62.21 °C | 50900
WDR5 | 44.6 °C | 15200
DCAF1 | 78.01 °C | 47100
WDR5 | 47 °C | 15700
WDR5 | 66.21 °C | 14000
WDR5 | 32.8 °C | 12800

Single results of other studies
Structure (SMILES) | technique | species | medium | dose | measurement | value
Cc1nc(C)c(C=[N+]([O-])C(C)(C)C)nc1C | HPLC-ECD | MPTP mouse model | striatum | 30 mg/kg | striatal HVA content | 0.88 ng/mg tissue and 0.917 ng/mg tissue and 0.78 ng/mg tissue and 0.738 ng/mg tissue and 0.565 ng/mg tissue and 0.778 ng/mg tissue and 0.777 ng/mg tissue

Some of these lines once more (block 3):
target | temperature | SYPRO Orange fluorescence [a.u.]
WDR5 | 66.21 °C | 14000
WDR5 | 47 °C | 15700
WDR5 | 32.8 °C | 12800
WDR5 | 44.6 °C | 15200
